{"data": "Assay results pooled from the literature", "note": "Parts stem from different laboratories: compare values within a part only. “And” joins repeats or separate records; there may be more than shown.", "UniProt P37173, sequence (whole entry, looked up)": "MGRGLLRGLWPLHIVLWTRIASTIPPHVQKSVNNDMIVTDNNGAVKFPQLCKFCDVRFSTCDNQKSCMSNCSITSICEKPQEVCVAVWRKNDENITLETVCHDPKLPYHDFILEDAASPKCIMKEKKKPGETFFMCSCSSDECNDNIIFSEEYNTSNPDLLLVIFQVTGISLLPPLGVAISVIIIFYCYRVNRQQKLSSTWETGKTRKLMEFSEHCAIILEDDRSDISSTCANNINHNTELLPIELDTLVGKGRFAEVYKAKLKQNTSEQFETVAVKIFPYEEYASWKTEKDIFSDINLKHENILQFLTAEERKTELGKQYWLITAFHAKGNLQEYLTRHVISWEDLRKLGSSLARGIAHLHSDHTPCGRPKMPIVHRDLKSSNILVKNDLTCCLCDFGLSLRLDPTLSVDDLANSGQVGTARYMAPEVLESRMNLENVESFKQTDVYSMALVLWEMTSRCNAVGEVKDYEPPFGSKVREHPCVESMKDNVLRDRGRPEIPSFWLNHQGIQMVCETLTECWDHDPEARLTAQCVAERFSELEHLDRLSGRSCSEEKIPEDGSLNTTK", "UniProt Q9Y5S2, sequence (whole entry, looked up)": "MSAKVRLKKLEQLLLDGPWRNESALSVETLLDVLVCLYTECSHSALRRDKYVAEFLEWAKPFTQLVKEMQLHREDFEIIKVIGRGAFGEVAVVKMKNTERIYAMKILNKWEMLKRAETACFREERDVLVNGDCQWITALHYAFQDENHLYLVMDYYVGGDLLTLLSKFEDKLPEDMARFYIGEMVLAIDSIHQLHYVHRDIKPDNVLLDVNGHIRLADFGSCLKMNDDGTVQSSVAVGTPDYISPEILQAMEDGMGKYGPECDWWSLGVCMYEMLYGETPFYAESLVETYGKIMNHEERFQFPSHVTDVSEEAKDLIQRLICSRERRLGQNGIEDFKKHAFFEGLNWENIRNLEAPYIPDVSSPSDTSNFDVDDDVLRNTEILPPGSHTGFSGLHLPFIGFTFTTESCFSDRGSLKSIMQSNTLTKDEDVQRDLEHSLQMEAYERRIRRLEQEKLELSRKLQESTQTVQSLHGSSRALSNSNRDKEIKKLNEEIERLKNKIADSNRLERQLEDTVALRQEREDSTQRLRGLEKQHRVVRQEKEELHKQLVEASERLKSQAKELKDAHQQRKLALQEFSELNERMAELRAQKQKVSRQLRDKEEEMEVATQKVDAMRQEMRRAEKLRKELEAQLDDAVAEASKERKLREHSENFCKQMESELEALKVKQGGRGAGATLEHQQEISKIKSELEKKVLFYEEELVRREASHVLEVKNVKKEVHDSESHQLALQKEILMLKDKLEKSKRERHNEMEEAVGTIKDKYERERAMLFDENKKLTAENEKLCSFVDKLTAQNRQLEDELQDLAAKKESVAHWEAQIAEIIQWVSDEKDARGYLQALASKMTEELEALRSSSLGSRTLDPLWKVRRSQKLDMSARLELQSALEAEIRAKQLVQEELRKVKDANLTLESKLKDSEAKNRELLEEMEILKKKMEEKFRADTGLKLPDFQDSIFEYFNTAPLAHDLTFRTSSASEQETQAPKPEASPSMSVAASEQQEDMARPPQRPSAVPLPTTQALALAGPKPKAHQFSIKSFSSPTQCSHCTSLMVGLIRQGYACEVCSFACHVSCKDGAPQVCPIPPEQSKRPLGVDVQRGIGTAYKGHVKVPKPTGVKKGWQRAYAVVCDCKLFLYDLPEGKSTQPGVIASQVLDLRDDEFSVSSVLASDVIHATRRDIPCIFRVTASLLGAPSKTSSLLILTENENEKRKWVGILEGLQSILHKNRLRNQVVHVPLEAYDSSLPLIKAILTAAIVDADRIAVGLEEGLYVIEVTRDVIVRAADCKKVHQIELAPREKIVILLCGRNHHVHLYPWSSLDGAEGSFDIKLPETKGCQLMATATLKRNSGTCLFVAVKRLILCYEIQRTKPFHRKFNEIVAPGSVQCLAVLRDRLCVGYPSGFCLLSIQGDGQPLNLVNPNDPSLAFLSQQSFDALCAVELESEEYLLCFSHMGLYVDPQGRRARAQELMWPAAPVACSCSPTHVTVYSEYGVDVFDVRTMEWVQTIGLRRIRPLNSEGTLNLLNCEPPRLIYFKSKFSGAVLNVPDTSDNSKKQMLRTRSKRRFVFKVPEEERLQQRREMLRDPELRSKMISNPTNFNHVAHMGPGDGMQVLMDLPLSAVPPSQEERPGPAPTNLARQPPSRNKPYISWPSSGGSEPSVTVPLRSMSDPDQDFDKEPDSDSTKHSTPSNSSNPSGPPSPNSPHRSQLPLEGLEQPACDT", "UniProt P10721, sequence (whole entry, looked up)": "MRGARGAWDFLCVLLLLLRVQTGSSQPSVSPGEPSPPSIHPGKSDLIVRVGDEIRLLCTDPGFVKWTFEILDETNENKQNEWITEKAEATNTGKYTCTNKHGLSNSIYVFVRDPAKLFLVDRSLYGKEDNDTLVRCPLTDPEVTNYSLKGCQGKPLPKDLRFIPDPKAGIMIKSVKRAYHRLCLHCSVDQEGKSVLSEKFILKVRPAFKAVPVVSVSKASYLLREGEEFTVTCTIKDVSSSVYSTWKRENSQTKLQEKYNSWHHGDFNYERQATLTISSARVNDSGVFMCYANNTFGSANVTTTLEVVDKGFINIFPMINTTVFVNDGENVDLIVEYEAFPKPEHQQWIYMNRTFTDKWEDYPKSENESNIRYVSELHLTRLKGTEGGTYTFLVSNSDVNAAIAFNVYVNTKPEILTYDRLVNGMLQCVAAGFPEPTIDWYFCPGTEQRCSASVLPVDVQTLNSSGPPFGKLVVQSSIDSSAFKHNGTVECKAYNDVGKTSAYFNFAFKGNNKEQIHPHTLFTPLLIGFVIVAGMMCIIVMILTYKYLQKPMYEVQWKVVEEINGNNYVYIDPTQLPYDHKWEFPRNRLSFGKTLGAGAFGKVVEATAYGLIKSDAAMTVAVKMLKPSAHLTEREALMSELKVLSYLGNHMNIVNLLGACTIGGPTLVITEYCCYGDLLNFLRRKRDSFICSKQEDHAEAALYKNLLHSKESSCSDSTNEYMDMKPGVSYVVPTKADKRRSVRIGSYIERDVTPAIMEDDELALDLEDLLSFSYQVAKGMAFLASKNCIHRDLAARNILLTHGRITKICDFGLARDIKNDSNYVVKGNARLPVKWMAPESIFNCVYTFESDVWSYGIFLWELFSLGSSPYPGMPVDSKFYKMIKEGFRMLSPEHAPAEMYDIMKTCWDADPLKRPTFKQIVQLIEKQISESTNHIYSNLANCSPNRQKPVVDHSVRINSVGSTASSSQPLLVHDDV", "UniProt Q9UF33, sequence (whole entry, looked up)": "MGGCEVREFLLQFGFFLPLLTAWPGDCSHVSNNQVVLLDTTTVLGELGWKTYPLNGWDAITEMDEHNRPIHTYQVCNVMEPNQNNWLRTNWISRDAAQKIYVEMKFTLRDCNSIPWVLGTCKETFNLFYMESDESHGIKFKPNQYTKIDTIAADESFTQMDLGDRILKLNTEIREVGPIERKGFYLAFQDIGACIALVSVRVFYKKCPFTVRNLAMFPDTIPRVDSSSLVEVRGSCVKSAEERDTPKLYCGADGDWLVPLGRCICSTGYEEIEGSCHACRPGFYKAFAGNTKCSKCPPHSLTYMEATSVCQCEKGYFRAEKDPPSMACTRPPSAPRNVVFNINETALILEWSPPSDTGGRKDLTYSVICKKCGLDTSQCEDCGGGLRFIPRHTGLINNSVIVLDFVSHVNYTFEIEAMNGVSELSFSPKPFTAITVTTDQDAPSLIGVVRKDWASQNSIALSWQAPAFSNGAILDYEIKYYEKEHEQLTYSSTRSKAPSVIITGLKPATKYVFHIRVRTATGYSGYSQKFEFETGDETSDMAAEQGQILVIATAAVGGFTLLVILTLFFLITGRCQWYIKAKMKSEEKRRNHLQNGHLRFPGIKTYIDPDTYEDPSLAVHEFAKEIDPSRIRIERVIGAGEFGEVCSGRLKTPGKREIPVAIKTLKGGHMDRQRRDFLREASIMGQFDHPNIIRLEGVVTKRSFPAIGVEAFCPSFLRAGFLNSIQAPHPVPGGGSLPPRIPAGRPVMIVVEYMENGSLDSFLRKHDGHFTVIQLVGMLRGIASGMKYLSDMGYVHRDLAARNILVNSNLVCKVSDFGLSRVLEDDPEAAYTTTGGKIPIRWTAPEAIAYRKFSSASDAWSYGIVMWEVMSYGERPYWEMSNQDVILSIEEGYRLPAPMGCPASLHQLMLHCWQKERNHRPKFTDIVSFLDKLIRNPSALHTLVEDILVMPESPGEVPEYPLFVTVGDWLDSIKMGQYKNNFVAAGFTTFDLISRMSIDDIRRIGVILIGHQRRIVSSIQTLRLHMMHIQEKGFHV"}
{"data": "Study 1", "target": "Ribosomal protein S6 kinase beta-2 (RPS6KB2, Homo sapiens, UniProt Q9UBS0)", "effect on": "enzyme activity", "mode": "inhibitor", "concentration": "0.5 µM", "relative to": "control", "UniProt Q9UBS0, sequence (whole entry, looked up)": "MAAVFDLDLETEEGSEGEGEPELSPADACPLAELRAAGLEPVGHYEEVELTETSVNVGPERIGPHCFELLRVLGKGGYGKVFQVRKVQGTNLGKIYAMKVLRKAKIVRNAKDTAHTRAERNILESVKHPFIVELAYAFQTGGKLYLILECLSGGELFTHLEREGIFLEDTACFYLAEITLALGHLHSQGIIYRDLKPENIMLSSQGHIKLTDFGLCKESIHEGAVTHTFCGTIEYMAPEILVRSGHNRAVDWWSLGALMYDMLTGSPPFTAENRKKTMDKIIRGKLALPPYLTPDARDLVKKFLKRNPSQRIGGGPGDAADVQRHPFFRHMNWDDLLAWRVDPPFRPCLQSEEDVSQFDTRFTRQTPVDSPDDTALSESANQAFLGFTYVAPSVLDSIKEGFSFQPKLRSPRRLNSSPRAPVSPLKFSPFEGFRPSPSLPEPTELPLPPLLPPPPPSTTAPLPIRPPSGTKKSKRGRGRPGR"}
{"Structure (SMILES)": "NC(=O)c1ccc(-c2nc(-c3ccc4c(c3)OCCO4)c(-c3ccccn3)[nH]2)cc1", "remaining activity": "100%"}
{"Structure (SMILES)": "CC(C)n1cnc2c(Nc3cccc(Cl)c3)nc(NCCO)nc21", "remaining activity": "97%"}
{"Structure (SMILES)": "CCN(CC)CCCCN1c2ccccc2Oc2ccc(Cl)cc21", "remaining activity": "107%"}
{"Structure (SMILES)": "NC(=O)c1cccc(-c2cc(Nc3ccc(OC(F)(F)F)cc3)ncn2)c1", "remaining activity": "102%"}
{"Structure (SMILES)": "O=C(O)/C=C/c1cc(Br)c(Br)c(Br)c1Br", "remaining activity": "93.8%"}
{"Structure (SMILES)": "CC(C)N(CCC(=O)c1ccc2ccccc2c1)Cc1ccccc1", "remaining activity": "94.3%"}
{"data": "Study 2", "organism": "Sarcocystis neurona", "effect on": "parasite growth", "concentration": "10 µM", "time": "96 h", "relative to": "untreated"}
{"SMILES": "Cc1ccc(S(=O)(=O)NC(=O)NN2CCCCCC2)cc1", "log2 fold change": 0.26}
{"SMILES": "C#C[C@]1(O)CC[C@H]2[C@@H]3CCc4cc(OC)ccc4[C@H]3CC[C@@]21C", "log2 fold change": 0.47}
{"SMILES": "CCCNCC(O)COc1ccccc1C(=O)CCc1ccccc1 (stereo not shown)", "log2 fold change": -1.55}
{"SMILES": "CC(C)NCC(O)c1cc(O)cc(O)c1 (stereo not shown)", "log2 fold change": 0.3}
{"SMILES": "COc1cc(/C=C/c2ccc(O)cc2)cc(OC)c1", "log2 fold change": 0.82}
{"SMILES": "CCCCCCCCCCC[C@@H](C[C@@H]1OC(=O)[C@H]1CCCCCC)OC(=O)[C@H](CC(C)C)NC=O", "log2 fold change": -0.42}
{"SMILES": "[H]/N=C(/NCCCCC)N/N=C/c1c[nH]c2ccc(OC)cc12", "log2 fold change": -6.13}
{"SMILES": "CCC(C)n1ncn(-c2ccc(N3CCN(c4ccc(OCC5COC(Cn6cncn6)(c6ccc(Cl)cc6Cl)O5)cc4)CC3)cc2)c1=O (stereo not shown)", "log2 fold change": 0.42}
{"SMILES": "CC(N)C12CC3CC(CC(C3)C1)C2 (stereo not shown)", "log2 fold change": 0.3}
{"SMILES": "CC(C)(C)NCC(O)COc1cccc2c1CC(O)C(O)C2 (stereo not shown)", "log2 fold change": 0.33}
{"data": "Study 3", "Structure (SMILES)": "Cn1cc(Cl)c2c(Oc3c(F)cc(Nc4cc(Cl)nc(N)n4)cc3F)ccnc21", "method": "competition with immobilised ligand", "concentration": "0.1 µM"}
{"target": "Serine/threonine-protein kinase TAO1 (TAOK1, Homo sapiens, UniProt Q7L7X3)", "effect on": "cell-free assay", "remaining binding [%]": 97}
{"target": "Phosphatidylinositol 3-kinase C2 domain-containing subunit gamma (PIK3C2G, Homo sapiens, UniProt O75747)", "effect on": "cell-free assay", "remaining binding [%]": 100}
{"target": "Mitogen-activated protein kinase kinase kinase 7 (MAP3K7, Homo sapiens, UniProt O43318)", "effect on": "cell-free assay", "remaining binding [%]": 100}
{"target": "Mitogen-activated protein kinase kinase kinase 19 (MAP3K19, Homo sapiens, UniProt Q56UN5)", "effect on": "cell-free assay", "remaining binding [%]": 75}
{"target": "SRSF protein kinase 1 (SRPK1, Homo sapiens, UniProt Q96SB4)", "effect on": "cell-free assay", "remaining binding [%]": 85}
{"target": "Ephrin type-A receptor 6 (EPHA6, Homo sapiens, UniProt Q9UF33)", "effect on": "cell-free assay", "remaining binding [%]": 100}
{"target": "TGF-beta receptor type-2 (TGFBR2, Homo sapiens, UniProt P37173)", "effect on": "cell-free assay", "remaining binding [%]": 90}
{"target": "Tyrosine-protein kinase Tec (TEC, Homo sapiens, UniProt P42680)", "effect on": "binding", "remaining binding [%]": 100}
{"target": "Serine/threonine-protein kinase NLK (NLK, Homo sapiens, UniProt Q9UBE8)", "effect on": "cell-free assay", "remaining binding [%]": 100}
{"target": "Macrophage-stimulating protein receptor (MST1R, Homo sapiens, UniProt Q04912)", "effect on": "cell-free assay", "remaining binding [%]": 87}
{"target": "Tyrosine-protein kinase ZAP-70 (ZAP70, Homo sapiens, UniProt P43403)", "effect on": "cell-free assay", "remaining binding [%]": 100}
{"target": "Mast/stem cell growth factor receptor Kit (KIT, Homo sapiens, UniProt P10721)", "effect on": "cell-free assay", "remaining binding [%]": 95}
{"target": "Serine/threonine-protein kinase BRSK2 (BRSK2, Homo sapiens, UniProt Q8IWQ3)", "effect on": "cell-free assay", "remaining binding [%]": 100}
{"target": "Serine/threonine-protein kinase MRCK beta (CDC42BPB, Homo sapiens, UniProt Q9Y5S2)", "effect on": "cell-free assay", "remaining binding [%]": 100}
{"data": "Single results of other studies"}
{"SMILES": "COc1ccc(-c2c(Nc3ccccn3)[nH]c3c(C4=CCCCC4)c(-c4ccccc4)nn3c2=O)cc1", "species": "human", "medium": "plasma", "route": "oral", "dose": "200 mg twice daily", "endpoint": "fluctuation", "result": "55% and 24.4% and 47.6%"}
{"note": "A few entries again (study 3):"}
{"target": "Ephrin type-A receptor 6 (EPHA6, Homo sapiens, UniProt Q9UF33)", "effect on": "cell-free assay", "remaining binding [%]": 100}
{"target": "Mitogen-activated protein kinase kinase kinase 7 (MAP3K7, Homo sapiens, UniProt O43318)", "effect on": "cell-free assay", "remaining binding [%]": 100}
{"target": "Macrophage-stimulating protein receptor (MST1R, Homo sapiens, UniProt Q04912)", "effect on": "cell-free assay", "remaining binding [%]": 87}
